Assay results gathered from unrelated publications.
Protocols differ between the studies behind these lines. Several values in a cell are separate wells, animals, samples, runs or records. ± marks the error that the study gave.

CC[C@H](C)[C@H](NC(=O)[C@H](CCCNC(=N)N)NC(=O)[C@H](CCCNC(=N)N)NC(=O)[C@H](CC(C)C)NC(=O)[C@H](CCC(=O)O)NC(=O)[C@H](CCC(N)=O)NC(=O)[C@H](C)NC(=O)[C@@H](NC(=O)[C@H](CNC(=O)CCl)NC(=O)[C@H](CCCNC(=N)N)NC(=O)[C@H](CCCNC(=N)N)NC(=O)[C@@H]1CCCN1C(=O)[C@H](CCCNC(=N)N)NC(=O)[C@H](CCCNC(=N)N)NC(=O)[C@@H]1CCCN1C(=O)[C@H](CCCNC(=N)N)NC(=O)[C@H](CCCNC(=N)N)NC(=O)[C@@H]1CCCN1C(=O)[C@H](CCCNC(=N)N)NC(=O)[C@H](CCCNC(=N)N)NC(=O)[C@@H]1CCCN1C(=O)[C@H](CCCNC(=N)N)NC(=O)[C@H](CCCNC(=N)N)NC(=O)[C@@H]1CCCN1C(C)=O)[C@@H](C)CC)C(=O)NCC(=O)N[C@@H](CC(=O)O)C(=O)N[C@@H](CCC(=O)O)C(=O)N[C@@H](Cc1ccccc1)C(=O)N[C@@H](CC(N)=O)C(=O)N[C@@H](C)C(=O)N[C@@H](Cc1ccc(O)cc1)C(=O)N[C@@H](Cc1ccc(O)cc1)C(=O)N[C@@H](C)C(=O)N[C@@H](CCCNC(=N)N)C(=O)N[C@@H](CCCNC(=N)N)C(N)=O — EC50 (primary CLL cells; specific induced apoptosis, flow cytometry; 48 h, together with: stroma NK-tert cell coculture): < 5 µM
CC(C)[C@@H](C)/C=C/[C@@H](C)[C@H]1CC[C@@H]2[C@]1(C)CC[C@H]1[C@]23C=C[C@]2(C[C@@H](OC(=O)CCCC(=O)O)CC[C@]12C)OO3 — EC50 (SUM149; cell growth or viability, ATP luminescence): 5 µM
Cc1cccc(O[C@H]2CCC[C@@H](C(C)CNCc3ccncc3)C2)c1 (relative stereo) — EC50 (MC65 Tet-Off; protection from amyloid beta toxicity): 0.0046 ± 0.0006 µM
CCOC(=O)c1ccc(NC(=S)Nc2ccc3c(c2)C(C)(C)CC(C)(C)S3)cc1 — EC50 (HK-2; cell growth or viability; 48 h): 5.14 µM
Cc1cccc(O)c1C(=O)OCC1(O)C(Nc2ccc3c(c2)Cc2ccccc2-3)C(N)C(NC(=O)N(C)C)(C(C)O)C1(C)O (stereo not drawn) — EC50 (SK-OV-3; cell growth or viability): 0.145 µM
CSCC[C@H](NC(=O)[C@@H](NC(=O)[C@H](CCSC)NC(=O)[C@H](Cc1ccc(O)cc1)NC(=O)[C@H](CCCCN)NC(=O)[C@@H](N)Cc1c[nH]c2ccccc12)C(C)C)C(N)=O — EC50 (human neutrophils; calcium mobilisation, agonist; without probenecid): 0.0016 µM
CCCCCCCCC1(CCCCCCCC)c2cc(-c3cc4[n+]5c(c3)-c3cccc[n+]3[Ir-3]536([c]5c(c(C)cc(C)c5-c5cccc[n+]53)-c3cccc[n+]36)[n+]3ccccc3-4)ccc2-c2ccc(-c3cc4[n+]5c(c3)-c3cccc[n+]3[Ir-3]536([c]5c(c(C)cc(C)c5-c5cccc[n+]53)-c3cccc[n+]36)[n+]3ccccc3-4)cc21.F[P-](F)(F)(F)(F)F.F[P-](F)(F)(F)(F)F.F[P-](F)(F)(F)(F)F.F[P-](F)(F)(F)(F)F — EC50 (SK-MEL-28; cell viability, resazurin; 16 h before light, visible light 100 J/cm2): 0.17 ± 0.01 µM
Cc1cc2c(C(=O)Cc3ccccc3)c(O)c(O)cc2c(O)c1-c1c(C)cc2c(C(=O)Cc3ccccc3)c(O)c(O)cc2c1O — EC50 (PC3-ML; ATP-lite viability; 72 h): 4.6 µM
F[P-](F)(F)(F)(F)F.F[P-](F)(F)(F)(F)F.[Ru+2].c1ccc(-c2ccccn2)nc1.c1ccc(-c2ccccn2)nc1.c1csc(-c2cc3cccnc3c3ncccc23)c1 — EC50 (SK-MEL-28; cell viability, resazurin; 16 h drug-to-light interval, together with: red light 625 nm, 100 J/cm2): > 300 µM
CSCC[C@H](NC(=O)[C@H](Cc1ccc(O)cc1)NC(=O)[C@H](CCCCN)NC(=O)[C@@H](N)Cc1c[nH]c2ccccc12)C(=O)N[C@H](C(=O)N[C@H](CCSC)C(N)=O)C(C)C — EC50 (human neutrophils; calcium mobilization, agonist): 0.001 µM
CC1(C)CC([n+]2cc([NH-])on2)CC(C)(C)N1O — EC50 (human trabecular meshwork cells; protection from TBHP toxicity, CellTiter; 24 h, together with: TBHP 300 µM): 0.38 µM
F[P-](F)(F)(F)(F)F.F[P-](F)(F)(F)(F)F.[Ru+2].c1ccc(-c2ccccn2)nc1.c1ccc(-c2ccccn2)nc1.c1csc(-c2ccc(-c3ccc(-c4cc5cccnc5c5ncccc45)s3)s2)c1 — EC50 (SK-MEL-28; cell viability, resazurin; 16 h drug-to-light interval, together with: red light 625 nm, 100 J/cm2): 2.03 µM and ~2 µM

Excerpt of the above:
Cc1cccc(O)c1C(=O)OCC1(O)C(Nc2ccc3c(c2)Cc2ccccc2-3)C(N)C(NC(=O)N(C)C)(C(C)O)C1(C)O (stereo not drawn) — EC50 (SK-OV-3; cell growth or viability): 0.145 µM
